Results pooled from the literature.
Each line is one published result; not all experiments were run side by side. ± gives the spread as reported.
SCN9A: Sodium channel protein type 9 subunit alpha (SCN9A, Homo sapiens, UniProt Q15858)
bglR: Beta-glucuronidase (bglR, Clostridium perfringens, UniProt Q8XP19)
OPG122: mRNA-decapping protein OPG122 (OPG122, Vaccinia virus, UniProt P04312)
Replicase polyprotein 1a papain-like protease: Replicase polyprotein 1a, papain-like protease (Severe acute respiratory syndrome coronavirus 2, UniProt P0DTC1)
rep papain-like protease: Replicase polyprotein 1ab, papain-like protease (rep, Middle East respiratory syndrome-related coronavirus, UniProt K9N7C7)

SMILES	target	assay	system	conditions	IC50
CC[C@H](C)[C@H](NC(=O)[C@H](Cc1c[nH]cn1)NC(=O)[C@H](Cc1ccc(O)cc1)NC(=O)[C@H](CCCCN)NC(=O)[C@@H]1CSSC[C@@H]2NC(=O)[C@H](CCC(=O)O)NC(=O)[C@H](CC(=O)O)NC(=O)[C@H](C)NC(=O)CNC(=O)[C@H](Cc3ccc(O)cc3)NC(=O)[C@H](CCCCN)NC(=O)[C@@H]3CSSC[C@H](NC(=O)[C@H](C(C)C)NC(=O)[C@H](Cc4ccc(O)cc4)NC(=O)CNC(=O)[C@H](CCCCN)NC(=O)[C@H](CSSC[C@H](NC(=O)[C@@H](N)CO)C(=O)N[C@@H](CCCCN)C(=O)N[C@@H](C(C)C)C(=O)N4CCC[C@H]4C(=O)N[C@@H](Cc4ccccc4)C(=O)N[C@@H](CC(N)=O)C(=O)N[C@@H](CCC(=O)O)C(=O)N3)NC2=O)C(=O)N[C@@H](CO)C(=O)N[C@@H](CCCCN)C(=O)N[C@@H](CCCNC(=N)N)C(=O)N[C@@H](CC(=O)O)C(=O)NCC(=O)N[C@@H](Cc2c[nH]c3ccccc23)C(=O)N1)C(=O)N[C@@H](CC(N)=O)C(=O)O	SCN9A	ion current, inhibitor, patch clamp	–	–	9.22 µM
CC(C)C[C@H](NC(=O)[C@H](CC(=O)O)NC(=O)[C@H](Cc1ccc(O)cc1)NC(=O)[C@H](CCCCN)NC(=O)[C@@H]1CSSC[C@@H]2NC(=O)[C@H](CCCCN)NC(=O)[C@H](CC(=O)O)NC(=O)[C@H](CC(N)=O)NC(=O)[C@H](CO)NC(=O)[C@@H]3CCCN3C(=O)[C@H](CC(N)=O)NC(=O)[C@@H]3CSSC[C@H](NC(=O)[C@H](C(C)C)NC(=O)[C@H](CC(C)C)NC(=O)[C@H](CO)NC(=O)[C@H](CO)NC(=O)[C@H](CO)NC(=O)[C@H](CCCCN)NC(=O)[C@H](CSSC[C@H](NC(=O)[C@H](C)N)C(=O)N[C@@H](CC(C)C)C(=O)NCC(=O)N[C@@H](Cc4ccccc4)C(=O)NCC(=O)N[C@@H](CCC(=O)O)C(=O)N[C@@H](CCCCN)C(=O)N3)NC2=O)C(=O)N[C@@H](CO)C(=O)N[C@@H](CCC(N)=O)C(=O)N[C@@H](CCCCN)C(=O)N[C@@H](CCCCN)C(=O)N[C@@H](CCCCN)C(=O)N[C@@H](Cc2c[nH]c3ccccc23)C(=O)N1)C(=O)O	SCN9A	ion current, inhibitor, patch clamp	–	–	> 20 µM
C1CCc2c(c(N3CCOCC3)nc3sc4c(N5CCOCC5)nnnc4c23)C1	bglR	–	–	–	> 100 µM
CSc1nc(N)nc2c1ncn2C1OC(COP(=O)(O)OP(=O)(O)OP(=O)(O)O)C(O)C1O (centres unmarked)	OPG122	–	–	–	> 200 µM
CC[C@H](C)[C@H](NC(=O)[C@H](CCCCN)NC(=O)[C@H](CCCCN)NC(=O)[C@H](CC(C)C)NC(=O)[C@H](Cc1c[nH]c2ccccc12)NC(=O)CN)C(=O)NCC(=O)N[C@@H](CCCCN)C(=O)N[C@@H](CCCCN)C(=O)N[C@H](C(=O)N[C@@H](CCC(=O)O)C(=O)N[C@@H](CCCNC(=N)N)C(=O)N[C@H](C(=O)NCC(=O)N[C@@H](CCC(N)=O)C(=O)N[C@@H](Cc1c[nH]cn1)C(=O)N[C@H](C(=O)N[C@@H](CCCNC(=N)N)C(=O)N[C@@H](CC(=O)O)C(=O)N[C@@H](C)C(=O)N[C@H](C(=O)N[C@H](C(=O)N[C@@H](CCC(N)=O)C(=O)N[C@H](C(=O)N[C@H](C(=O)NCC(=O)N[C@H](C(=O)N[C@@H](C)C(=O)N[C@@H](CCC(N)=O)C(=O)N[C@@H](CCC(N)=O)C(=O)N[C@@H](C)C(=O)N[C@@H](C)C(=O)N[C@@H](CC(N)=O)C(=O)N[C@H](C(=O)N[C@@H](C)C(=O)N[C@@H](C)C(=O)N[C@H](C(=O)N[C@@H](CC(C)C)C(=O)N[C@@H](CCCCN)C(N)=O)[C@@H](C)O)C(C)C)C(C)C)[C@@H](C)CC)[C@@H](C)O)[C@@H](C)CC)[C@@H](C)O)[C@@H](C)O)C(C)C)[C@@H](C)CC	KCNH2 (Homo sapiens, UniProt Q12809)	ion current, inhibitor, patch clamp	–	–	> 30 µM
CCc1ccc(N2CCN(C)CC2)cc1C(=O)NC1(c2ccc3c4c(cccc24)CC3)CC1	Replicase polyprotein 1a papain-like protease	enzyme activity, inhibitor	–	–	0.47 µM
Nc1nc2c(nc(I)n2C2OC(COP(=O)(O)OP(=O)(O)OP(=O)(O)O)C(O)C2O)c(=O)[nH]1 (centres unmarked)	OPG122	–	–	–	> 200 µM
CCC(CC)O[C@@H]1C=C(C(=O)O)C[C@H](NCc2ccc(-c3ncccn3)cc2)[C@H]1NC(C)=O	Neuraminidase (NA, Influenza A virus, UniProt P03468)	enzyme activity, inhibitor	–	–	4.2 µM
Cc1ccc(N2CCN(C)CC2)cc1C(=O)NC1(c2ccc3c4c(cccc24)C(=O)N3)CC1	Replicase polyprotein 1a papain-like protease	enzyme activity, inhibitor	–	–	0.044 µM
CC(=O)N[C@H]1CC(=O)NCCCC[C@@H](C(N)=O)NC(=O)[C@@H](Cc2ccccc2)NC(=O)[C@@H]2CCCN2C(=O)[C@H](CC(=O)O)NC(=O)[C@H](CC(=O)O)NC(=O)[C@H](Cc2ccc(CP(=O)(O)O)cc2)NC(=O)[C@H](CCC(=O)O)NC1=O	Secreted effector protein (Yersinia pestis, UniProt O68720)	–	–	–	~100 µM
CC1=C(C(=O)Nc2ccc(C)cc2)C(c2ccccc2Br)NC(=S)N1 (centres unmarked)	Angiotensin-converting enzyme 2, with SARS-CoV-2 spike RBD (ACE2, Homo sapiens, UniProt Q9BYF1)	inhibitor	–	–	0.0155 ± 0.00137 µM
CC[C@H](C)[C@@H]1NC(=O)[C@H](CCCNC(=N)N)NC(=O)[C@H](CO)NC(=O)[C@H](CCC(=O)O)NC(=O)[C@H](CC(=O)O)NC(=O)CNC(=O)CNC(=O)[C@H]([C@@H](C)O)NC(=O)[C@H](Cc2ccccc2)NC(=O)[C@H](CO)NC(=O)[C@H]([C@@H](C)O)NC(=O)[C@H](C)NC(=O)[C@@H]2CSSC[C@@H](C(=O)N[C@@H](Cc3ccc(O)cc3)C(=O)N[C@@H](Cc3ccccc3)C(=O)N[C@H](C(=O)N[C@H](C(=O)NCC(=O)O)[C@@H](C)O)[C@@H](C)O)NC(=O)[C@H]([C@@H](C)O)NC(=O)[C@H](CSSC[C@H](NC(=O)[C@H](CCC(=O)O)NC(=O)[C@H](CO)NC(=O)[C@H](CCCCN)NC(=O)[C@H](Cc3ccc(O)cc3)NC(=O)[C@@H]3CCCN3C(=O)[C@H](Cc3ccccc3)NC(=O)[C@H](CCCCN)NC(=O)[C@H](CCCNC(=N)N)NC(=O)[C@H](CCCCN)NC(=O)[C@H](CCCCN)NC(=O)[C@H](Cc3ccc(O)cc3)NC(=O)[C@@H]3CCCN3C(=O)[C@@H](NC(=O)[C@H](CC(=O)O)NC(=O)[C@H](CCCCN)NC(=O)[C@H](CCCCN)NC(=O)[C@@H](NC(=O)[C@@H](NC(=O)[C@@H](N)CCC(=O)O)C(C)C)[C@@H](C)CC)[C@@H](C)O)C(=O)N[C@@H](CC(C)C)C(=O)N[C@@H](CCCCN)C(=O)N[C@@H](C)C(=O)N2)NC(=O)[C@H](CCCCN)NC(=O)[C@H](Cc2ccccc2)NC(=O)[C@H](Cc2ccccc2)NC(=O)CNC(=O)[C@@H]2CCCN2C(=O)[C@H](CCCCN)NC(=O)CNC(=O)[C@H](CCC(=O)O)NC(=O)[C@H](CCC(N)=O)NC1=O	KCNQ4 (Homo sapiens, UniProt P56696, D266G)	potassium current, whole-cell patch clamp	HEK-293T	–	108 ± 6.3 µM
CC[C@H](C)[C@@H]1NC(=O)[C@@H]2CSSC[C@H](NC(=O)[C@H](CCCNC(=N)N)NC(=O)[C@@H]3CSSC[C@H](NC1=O)C(=O)N[C@@H]([C@@H](C)O)C(=O)N[C@@H](CCCNC(=N)N)C(=O)NCC(=O)N[C@@H](Cc1ccccc1)C(=O)N3)C(=O)N[C@@H](CC(C)C)C(=O)N[C@H]1CSSC[C@H](NC(=O)[C@H](C(C)C)NC(=O)CNC(=O)[C@H](CCCNC(=N)N)NC(=O)[C@H](CCCNC(=N)N)NC1=O)C(=O)N[C@@H](CCCNC(=N)N)C(=O)N2	Lethal factor (Bacillus anthracis, UniProt P15917)	enzyme activity, inhibitor	–	–	0.384 ± 0.033 µM
N#CC(CC1CCCNC1=O)NC(=O)C(CC1CC1)NC(=O)c1cc2cc(F)cc(F)c2[nH]1 (centres unmarked)	Cathepsin B (CTSB, Homo sapiens, UniProt P07858)	enzyme activity, inhibitor, fluorescence	–	pH 5, with preincubation	0.169 µM
O=[N+]([O-])c1cc(C(F)(F)F)cc([N+](=O)[O-])c1NNC(=S)Nc1ccc(F)cc1	Transcriptional activator VP30, with NP peptide (VP30, Zaire ebolavirus, UniProt Q05323)	–	Ebola virus	–	26.9 µM
Nc1ncnc2c1ncn2C1CC(O)C(COP(=O)(O)OP(=O)(O)OP(=O)(O)O)O1 (centres unmarked)	OPG122	–	–	–	129 µM
CC[C@H](C)[C@H](NC(=O)[C@H](Cc1ccc(O)cc1)NC(=O)[C@H](Cc1c[nH]cn1)NC(=O)[C@@H]1CSSC[C@H](NC(=O)[C@@H]2CCCN2C(=O)[C@H](CCCNC(=N)N)NC(=O)[C@H](CC(C)C)NC(=O)[C@H](CC(=O)O)NC(=O)[C@@H]2CCCN2C(=O)[C@H](CCCCN)NC(=O)CNC(=O)CN)C(=O)N[C@@H](Cc2ccc(O)cc2)C(=O)N2CCC[C@H]2C(=O)N2CCC[C@H]2C(=O)N1)C(=O)N1CCC[C@H]1C(=O)N[C@@H](CCCNC(=N)N)C(=O)N1CCC[C@H]1C(=O)N[C@@H](CCCCN)C(=O)N1CCC[C@H]1C(=O)N[C@@H](CCCNC(=N)N)C(=O)O	Acetylcholine-binding protein (Lymnaea stagnalis, UniProt P58154)	binding, inhibitor	–	added: α-bungarotoxin	7.3 ± 0.4 µM
CC(C)C[C@@H]1NC(=O)[C@H](CCCNC(=N)N)NC(=O)[C@@H]2CCCN2C(=O)[C@@H]2CSSC[C@H](NC(=O)CNC(=O)[C@@H]3CCCN3C(=O)[C@H](CCCCN)NC(=O)[C@H](CC(=O)O)NC(=O)[C@@H](NC(=O)CN)C(C)C)C(=O)N[C@@H](CCCNC(=N)N)C(=O)N[C@@H](Cc3ccc(O)cc3)C(=O)N[C@@H](CC(C)C)C(=O)N[C@@H](Cc3ccccc3)C(=O)NCC(=O)NCC(=O)N[C@H]3CSSC[C@H](NC(=O)CNC1=O)C(=O)N[C@@H](CCCCN)C(=O)NCC(=O)N[C@@H](CCCCN)C(=O)NCC(=O)N[C@@H](Cc1c[nH]cn1)C(=O)N[C@@H](CC(=O)O)C(=O)N[C@@H](Cc1ccc(O)cc1)C(=O)N[C@H](C(=O)N[C@@H](C)C(=O)N[C@@H](Cc1c[nH]c4ccccc14)C(=O)N[C@@H](CC(=O)O)C(=O)NCC(=O)N[C@H](C(=O)N[C@@H](Cc1ccccc1)C(=O)N[C@@H](CO)C(=O)N[C@@H](CC(=O)O)C(=O)O)[C@@H](C)O)CSSC[C@H](NC(=O)[C@H](CC(=O)O)NC(=O)[C@H](CC(=O)O)NC(=O)[C@H](CC(=O)O)NC(=O)[C@H](CO)NC(=O)[C@H](CCCCN)NC3=O)C(=O)N2	SCN9A	peak sodium current, inhibitor, automated patch clamp	HEK293	holding potential -100 mV, added: 0.1 % BSA	0.38 µM
Cc1ccc(N2CC3CC(C2)N3C)cc1C(=O)NC1(c2ccc3c4c(cccc24)C(=O)N3C)CC1	Replicase polyprotein 1a papain-like protease	cell-free assay	–	–	0.0054 µM
CCC(C(=O)Nc1cccc(F)c1)n1c(SCc2ccc(F)cc2)nc2ncccc21 (centres unmarked)	rep papain-like protease	enzyme activity, inhibitor	–	–	> 100 µM
Nc1ncnc2c1ncn2C1OC(COP(=O)(O)OP(=O)(O)O)C(O)C1O (centres unmarked)	OPG122	–	–	–	188 µM
C1CCc2c(c(N3CCOCC3)nc3sc4c(N5CCNCC5)nnnc4c23)C1	bglR	–	–	–	0.06 ± 0.01 µM
CCC(C(=O)Nn1cccc1)n1cccc2nc(SCc3ccc(F)cc3)nc1-2 (centres unmarked)	rep papain-like protease	enzyme activity, inhibitor	–	–	> 100 µM

A few entries again:
SMILES	target	assay	system	conditions	IC50
CC(=O)N[C@H]1CC(=O)NCCCC[C@@H](C(N)=O)NC(=O)[C@@H](Cc2ccccc2)NC(=O)[C@@H]2CCCN2C(=O)[C@H](CC(=O)O)NC(=O)[C@H](CC(=O)O)NC(=O)[C@H](Cc2ccc(CP(=O)(O)O)cc2)NC(=O)[C@H](CCC(=O)O)NC1=O	Secreted effector protein (Yersinia pestis, UniProt O68720)	–	–	–	~100 µM
C1CCc2c(c(N3CCOCC3)nc3sc4c(N5CCNCC5)nnnc4c23)C1	bglR	–	–	–	0.06 ± 0.01 µM
CCC(C(=O)Nn1cccc1)n1cccc2nc(SCc3ccc(F)cc3)nc1-2 (centres unmarked)	rep papain-like protease	enzyme activity, inhibitor	–	–	> 100 µM
